Results of several laboratories.
Parts stem from different laboratories: compare values within a part only. Positions count from the first letter of the parent shown.

Set 1 — target: CCNA2, cyclin fold, Cln2 fusion (human); technique: yeast growth competition, sequencing; sample: yeast; notes: strong parent motif; reference: not given; direction: higher = stronger binding; endpoint: normalised enrichment score
Starting sequence: INSM1 docking peptide (human); PKAIRKLHFEDEV
PKAIRKGHFEDEV [L7G]: -0.335
PKAIRKLHFEDHV [E12H]: 5.16
PKLIRKLHFEDEV [A3L]: 2.27
PKQIRKLHFEDEV [A3Q]: 0.711
PKAIRKLTFEDEV [H8T]: 5.52
PKAIRKLHFHDEV [E10H]: 4.45
PKAIRKLHFMDEV [E10M]: 4.72
PKAIYKLHFEDEV [R5Y]: 0.525
PKATRKLHFEDEV [I4T]: 4.3
PKAIRKFHFEDEV [L7F]: 0.272
PMAIRKLHFEDEV [K2M]: 4.16
PKAIRKQHFEDEV [L7Q]: 0.0853
PKAIRKLHPEDEV [F9P]: 0.549
PKAIKKLHFEDEV [R5K]: 4.15
PKAIRKLHFEDRV [E12R]: 4.39
PKAIRMLHFEDEV [K6M]: 4.37
PKAIRKLHFEREV [D11R]: 4.34
PKAIRKLHFEPEV [D11P]: 4.55
PKAIRKLHFEDAV [E12A]: 5.05
PKAIGKLHFEDEV [R5G]: 0.524
PKAIRKLRFEDEV [H8R]: 4.77
PKAICKLHFEDEV [R5C]: 2.17
PKAIRKRHFEDEV [L7R]: 0.549
PKAKRKLHFEDEV [I4K]: 6.91
PKWIRKLHFEDEV [A3W]: 1.98

Set 2 — technique: Sort-seq; refers to: YFP reporter; sample: E. coli; notes: PhoQ-PhoP variant library; added: 10 µM Mg2+; reference: high Mg2+ state; direction: higher = stronger signaling; endpoint: fold induction
Substance: PhoQ, residues 284 288 289 292 302 303 SMMNNA
PhoP, residues 12 14 15 18 19 ICWRQ (Escherichia coli, UniProt P23836): 5.85
PhoP, residues 12 14 15 18 19 VHTVL (Escherichia coli, UniProt P23836): 8.67
PhoP, residues 12 14 15 18 19 TQCLL (Escherichia coli, UniProt P23836): 10.2

Set 3 — technique: protein-binding microarray; form: double-stranded DNA, one strand shown; sample: in vitro; concentration: 2200 nM top; notes: 60-bp whole probe; added: salmon DNA 0.4 mg/ml; reference: random background probes; direction: higher = stronger binding; endpoint: fitted relative affinity; all sequences stand within: GCCTAGCAC … GTCTTGATTCGCTTGACGCTGCTG
Target: Interferon regulatory factor 7, full length, phosphomimetic (IRF7, Homo sapiens, UniProt Q92985, residues 1-503, S471D/S472D/S475D/S476D/S477D/S483D/S484D/S487D)
Chain of UniProt Q92985 (whole entry, unmodified, looked up): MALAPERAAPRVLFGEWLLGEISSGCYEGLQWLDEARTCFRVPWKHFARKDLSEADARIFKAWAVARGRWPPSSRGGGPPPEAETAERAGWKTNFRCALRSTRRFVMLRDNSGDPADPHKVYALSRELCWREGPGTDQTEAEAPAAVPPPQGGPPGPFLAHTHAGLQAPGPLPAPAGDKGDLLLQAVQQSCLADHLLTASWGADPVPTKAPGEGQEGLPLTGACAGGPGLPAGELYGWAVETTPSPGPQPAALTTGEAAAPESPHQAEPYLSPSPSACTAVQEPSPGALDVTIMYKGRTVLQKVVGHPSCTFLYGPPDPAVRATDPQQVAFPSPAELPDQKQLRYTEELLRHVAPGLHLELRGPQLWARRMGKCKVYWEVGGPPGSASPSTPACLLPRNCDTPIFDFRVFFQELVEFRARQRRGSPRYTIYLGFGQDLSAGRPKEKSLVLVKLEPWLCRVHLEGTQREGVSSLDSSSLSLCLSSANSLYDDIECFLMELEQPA
CTTGAACCTGGGAGGTGGAGGTGCTAG: -1.01 z-score
GACGGTATCGGACTTGGGACGTGCTAG: -0.305 z-score
TTAGGACTCGGTCTCGGTTAGTGCTAG: 0.495 z-score
TTAGGACTGCTTAACCTTTAGTGCTAG: 0.0243 z-score
TTAGGTTCCCCTTTCCTTTAGTGCTAG: 2.73 z-score
TCACCTCTAGGAATGTAACTGTGCTAG: 0.633 z-score
GACGGTTCCGGTGTCGGGACGTGCTAG: 0.264 z-score
GACGGACTGCTTTTCCAGACGTGCTAG: 0.397 z-score
GACGGTTTCGGGTATCGGTACGTGCTA: 6.24 z-score
TCACCTCTCCTCTCAGGAACTGTGCTA: 1.37 z-score
TTAGGACTGGACTTTTGGTTAGTGCTA: -0.0774 z-score
TTAGGACTGGGGGCTGGGTTAGTGCTA: 0.114 z-score
GACGAACTGGGTATCGGGACGTGCTAG: -0.345 z-score
TCACTTCTCCCTTTCAGTTTGTGCTAG: 4.94 z-score
TTAGGTTACGGTTTCGGTTAGTGCTAG: 6.7 z-score
GACGGTCTCGTTTTCGGGACGTGCTAG: 3.74 z-score
TTAGCTATCGGGTTTCGGTTAGTGCTA: 3.84 z-score
GACGGTATCCTTAACCTGACGTGCTAG: 0.773 z-score
GACGATTCCAGTTTAGAGACGTGCTAG: 0.77 z-score

Set 4 — technique: RNA Bind-n-Seq; form: RNA; sample: in vitro; concentration: 365 nM; reference: no-protein control; direction: higher = stronger binding; endpoint: RBNS enrichment (R)
Target: RNA binding protein fox-1 homolog 2, RRM domain, GST-SBP tag (RBFOX2, Homo sapiens, UniProt O43251-10, residues 100-194)
Notes: natural RNA segment, single round, ends assumed
All sequences stand within: GGGAGUUCUACAGUCCGACGAUC … UGGAAUUCUCGGGUGCCAA
Construct (chain): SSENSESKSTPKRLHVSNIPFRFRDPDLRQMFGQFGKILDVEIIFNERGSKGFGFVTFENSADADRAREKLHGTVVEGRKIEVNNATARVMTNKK
CAUUUCUUUUUAUAUAUAAACUAUUUAAUAAAAAUGAAAGAUUGAAUGUUCAUGUGUGGGUUAAAAAAAGAAGCUUUAACACUAAUUUUCCAAAGGUUAGGGAAGAUUCC: 0.801
UUUUAGUCUAAGGAAAGCAUAGAUGAAGCAAUACUUUCCUUCUUUGAUGAAAAGCCUAGAAAUUAGUUCCUCUUAAAGUGCAAUAUUACUUAACCUCAGAAUCGGGCCAG: 0.359
CAUCCAAGGAGAGGGCCAGGAAAACAUCCACCAUCAAAUGGUUUUCCAGCUCCCUCAUCUCUUCAAAAUUGAGUUCUUGGGAGAACAAAAGGUAUGUAUCCUGCAGUAGU: 0.287
UGCUGUAGGAUUAAUUCGAAAAUAGGCAGAAUUCCAUUCCUCCCAAGGUGGCAAAAAUUAGCUAUACUGAUGUAAUUGUCAUUUACCUGGGUAUGAAUUCCCUGACACAC: 0.428
GCUCUUAGGAAAAGAGGCAAACCCACACCCAAAAGUACCUUGUUUUCCUUGGGGAAGAUGCGUGGAGCUGUCCACAGAUAGCCUACCCACUGGAUUGCUACCGCCGUGUG: 0.237
UGGAGGUAUGAUAGGUUUAUCACACAGCCUAAGGCAGAUUUUGUUUUGUCUGUACUGACUCUAUCUGCCACACAGAAUGUAUGUAUGUAAUAUUCAGUAAUAAAUGUCAU: 1.44
UAGUUGAAAGACUACACAAAAAGCCACAAUCAUUGCCCGGCCUCCUGAGUCACCUUCUAUCUAUACUUUGCUUAAAAGCUAUCCCAGAUACUCCCCCUUGAGGAGCUCAU: 0.332
CAUAUAAAUUCUGAUUUAAGGUCCUAAAUUCUUAACCUGGAACUGGAGUUGGCAAUACCUAGUUCUGCUUCUGAAACUGGAGUAUCAUUCUUUACAUAUUUAUAUGUAUG: 0.347

A few entries again (set 3):
CTTGAACCTGGGAGGTGGAGGTGCTAG: -1.01 z-score
GACGGTATCGGACTTGGGACGTGCTAG: -0.305 z-score
TTAGGACTCGGTCTCGGTTAGTGCTAG: 0.495 z-score
TTAGGACTGCTTAACCTTTAGTGCTAG: 0.0243 z-score
TTAGGTTCCCCTTTCCTTTAGTGCTAG: 2.73 z-score
TCACCTCTAGGAATGTAACTGTGCTAG: 0.633 z-score
GACGGTTCCGGTGTCGGGACGTGCTAG: 0.264 z-score
GACGGACTGCTTTTCCAGACGTGCTAG: 0.397 z-score
